Measured values collected from several papers.
Each line is one published result; not all experiments were run side by side. Values joined by “and” are separate records of one study, mostly repeats; a detail may differ. ± gives the spread as reported.

Compound	test	system	conditions	scale	endpoint	value
C[C@H]1O[C@@H](O[C@H]2CC[C@@]3(C)[C@@H](CC[C@]4(C)[C@@H]3C=C[C@]35OC[C@@]6(CCC(C)(C)C[C@H]63)[C@@H](O)C[C@]54C)[C@]2(C)CO)[C@H](O)[C@@H](O[C@@H]2O[C@H](CO)[C@@H](O)[C@H](O)[C@H]2O)[C@H]1O		Mus musculus, pair-fed, AAV8-TBG-SIRT1 shRNA hepatic SIRT1 knockdown, plasma	oral, high dose, 5 h		ALT activity	24.4 U/L and 24.9 U/L and 18.4 U/L and 25.1 U/L and 22.4 U/L and 27.7 U/L
[131I-].[Na+]	ATA response criteria	human, papillary thyroid cancer, nodal metastases	3700 MBq		excellent response	61.6%
CC[C@@H](C)[C@@H](NC(=O)[C@@H](Cc1ccc(O)cc1)NC(=O)[C@H]1CCCN1C(=O)[C@@H](CCCNC(=N)N)NC(=O)[C@H](N)Cc1c[nH]cn1)C(=O)N[C@H](C)C(=O)N[C@H](Cc1c[nH]cn1)C(=O)N[C@H](CCCNC(=N)N)C(=O)N[C@H](CCCCNC(=O)c1cccc(S(=O)(=O)F)c1)C(=O)N[C@H](Cc1ccc(O)cc1)C(=O)N[C@H](CO)C(=O)N[C@H](Cc1ccccc1)C(N)=O	ex vivo flow cytometry	B16 tumour-bearing mice, tumour	dose not given		CD3+ CD8+ T cell frequency	21.2% and 18.8% and 21.1% and 20.8% and 22.4%
COc1ncc(-c2nc3c(n2C(C)C)[C@H](c2ccc(Cl)cc2)N(c2cc(Cl)cn(C)c2=O)C3=O)c(OC)n1	antileukemic activity, refers to: treatment failure, resistant disease	human, acute myeloid leukaemia	45 mg, low-dose, RDE		best overall response	59.3%
N.N.[Cl][Pt][Cl]		KSN/Slc nude mice, SAS xenograft	dose not given, day 8		tumour volume	76.6 mm3 and 50.4 mm3 and 205 mm3 and 119 mm3 and 203 mm3 and 283 mm3 and 271 mm3 and 456 mm3
Cc1cn(-c2cc(NC(=O)c3ccc(C)c(Nc4nccc(-c5cccnc5)n4)c3)cc(C(F)(F)F)c2)cn1		human patients	baseline, unit not given	baseline: placebo	ADAS-Cog maze time difference	3
Cc1nc(Nc2ccc(CC(=O)O)cc2)nc(Nc2ccc(F)c(C(F)(F)F)c2)c1C		C57BL/6J mice, high-fat diet	intraperitoneal, 0.3 mg/kg daily, 60% fat diet 12 weeks, dosed last four	baseline: vehicle	fed blood glucose	decreased
COc1cc2nccc(Oc3ccc(NC(=O)c4cc5c(n(-c6ccccc6)c4=O)CCCC5=O)nc3)c2cc1OC		MOLM-13 luc/gfp xenograft, mice	diet, 0.004% in feed	baseline: treated over control	median survival ratio	1.33
CN1CCN(S(=O)(=O)c2cc([N+](=O)[O-])ccc2N(CCOS(C)(=O)=O)CCOS(C)(=O)=O)CC1		NSG mice, sample CG PDX	intraperitoneal, 25 mg/kg weekly x3	baseline: treated over vehicle	EFS ratio (T/C)	3.2
O=C(O)CNC(=O)c1cc2ccccc2n1Cc1ccc(Br)c2ccccc12		mouse, acute hyperuricaemia model, serum	oral, 2 mg/kg, first screening		serum uric acid	719 µM
Cc1cccc(C)c1NC(=O)C1CCCCN1 (stereo not drawn)		Sprague-Dawley rat, male	intrathecal, 30 µL, 30 mM		sensory block duration	24.8 ± 8.7 min
c1ccc2c(c1)Nc1ccccc1S2		CT26 tumour-bearing mice	intraperitoneal, 100 mg/kg equivalents daily, day 2		tumour volume	277 mm³
CC[C@H](C)[C@@H]1NC(=O)[C@@H]2CCCN2C(=O)[C@H](CC(C)C)NC(=O)[C@H](CC(C)C)NC(=O)CNC(=O)[C@@H](NC(=O)[C@@H](NC(=O)[C@H](CC(=O)O)NC(=O)CNC(=O)[C@@H](NC(=O)[C@H](C)NC(=O)CNC(=O)[C@H](CCCCN)NC(=O)[C@H](CC(C)C)NC(=O)[C@H](CC(C)C)NC(=O)[C@H](CCCCN)NC(=O)CNC(=O)[C@@H](NC(=O)[C@@H](N)CC(C)C)C(C)C)C(C)C)C(C)C)CSSC[C@@H](C(=O)O)NC1=O	RNA-seq, refers to: Plac8	mouse, traumatic brain injury model, frontal cortex and hippocampus	dose not given	baseline: TBI alone	log2 fold change	-3.83
COc1cc2c3c(n(CCCN4CCOCC4)c(=O)c2cc1OC)-c1cc2c(cc1C3=O)OCO2		GL261-Luc, mouse orthotopic glioblastoma	intravenous, 25 mg/kg		mean survival time	25 days
O=C(O)/C=C/C(=O)O.Oc1cccc2[nH]cc(CCNCc3ccccc3)c12		C57BL/6J mice	subcutaneous, 30 mg/kg, 30 min		distance travelled	869 ± 137 cm
CCCCC1(CCCC)CN(c2ccccc2)c2cc(SC)c(OCC(=O)N[C@@H](C(=O)NCC(=O)O)c3ccccc3)cc2S(=O)(=O)C1	refers to: HDL cholesterol	human, serum	2.5 mg once daily, day 8		serum HDL-C	55.8 mg/dL
CC1(C)C(=CC=C2CCCC(C=CC3=[N+](CCCCS(=O)(=O)[O-])c4ccc(S(=O)(=O)O)cc4C3(C)C)=C2Oc2ccc(S(=O)(=O)O)cc2)N(CCCCCC(=O)NCCCC[C@H](NC(=O)[C@H](CO)NC(=O)CNC(=O)CNC(=O)CNC(=O)[C@H](Cc2ccccc2)NC(=O)[C@H](CCCNC(=N)N)NC(=O)[C@@H]2CCCN2C(=O)[C@H](CC(N)=O)NC(=O)[C@@H]2CCCN2C(=O)[C@H](CO)NC(=O)[C@@H](N)CCCCN)C(N)=O)c2ccc(S(=O)(=O)O)cc21	NIR fluorescence endoscopy	CPC;Apc mice, colonic adenoma	1.5 h		tumour to background ratio	2.22
COc1ccc(-c2[nH]c3c(OC)c(OC)ccc3c2C(=O)c2cc(OC)c(OC)c(OC)c2)cc1OP(=O)([O-])[O-].[Na+].[Na+]	outcome: decreased	mouse, BALB/c, orthotopic RENCA-luc, kidney tumour	dose not given		bioluminescence signal	decreased
CCCCCN1C[C@H](O)[C@@H](O)[C@H](O)[C@@H]1CO		Hexb-/- mice, male	30 mg/kg/day		median survival	151 days
C[C@H](NC(=O)c1c(C(F)F)nn(C)c1Oc1cccc(C(F)(F)F)c1)c1ccc(C(=O)O)cc1		human, advanced tumours	125 mg		deaths	0%
Nc1ncnc2c1ncn2[C@@H]1O[C@@H]2COP(=O)([S-])O[C@@H]3[C@H](O)[C@@H](COP([O-])(=S)O[C@H]2[C@H]1O)O[C@H]3n1cnc2c(N)ncnc21.[Na+].[Na+] (stereo partly drawn)		BALB/c mouse CT26 tumour	iv, 1 mg/kg days 9,12,15		complete response rate	10%

For quick reference, copied from above:
Compound	test	system	conditions	scale	endpoint	value
CC1(C)C(=CC=C2CCCC(C=CC3=[N+](CCCCS(=O)(=O)[O-])c4ccc(S(=O)(=O)O)cc4C3(C)C)=C2Oc2ccc(S(=O)(=O)O)cc2)N(CCCCCC(=O)NCCCC[C@H](NC(=O)[C@H](CO)NC(=O)CNC(=O)CNC(=O)CNC(=O)[C@H](Cc2ccccc2)NC(=O)[C@H](CCCNC(=N)N)NC(=O)[C@@H]2CCCN2C(=O)[C@H](CC(N)=O)NC(=O)[C@@H]2CCCN2C(=O)[C@H](CO)NC(=O)[C@@H](N)CCCCN)C(N)=O)c2ccc(S(=O)(=O)O)cc21	NIR fluorescence endoscopy	CPC;Apc mice, colonic adenoma	1.5 h		tumour to background ratio	2.22
O=C(O)CNC(=O)c1cc2ccccc2n1Cc1ccc(Br)c2ccccc12		mouse, acute hyperuricaemia model, serum	oral, 2 mg/kg, first screening		serum uric acid	719 µM
CN1CCN(S(=O)(=O)c2cc([N+](=O)[O-])ccc2N(CCOS(C)(=O)=O)CCOS(C)(=O)=O)CC1		NSG mice, sample CG PDX	intraperitoneal, 25 mg/kg weekly x3	baseline: treated over vehicle	EFS ratio (T/C)	3.2
